Results pooled from the literature.
± gives the spread as reported.
Cell line: HEK293

| Substance | test | conditions | IC50 |
| --- | --- | --- | --- |
| C#CC[C@H](NC(=O)CNC(=O)CNC(=O)[C@H](Cc1ccc(O)cc1)NC(=O)[C@H](CCCNC(=N)N)NC(=O)[C@H](CCC(N)=O)NC(=O)[C@@H]1CCCN1C(=O)[C@H](CCC(N)=O)NC(=O)[C@H](Cc1ccc(O)cc1)NC(=O)[C@@H](NC(=O)[C@H](CCCNC(=N)N)NC(=O)[C@@H]1CCCN1C(=O)[C@H](CCCNC(=N)N)NC(=O)[C@H](CC(C)C)NC(=O)[C@H](CC(N)=O)NC(=O)[C@H](Cc1ccc(O)cc1)NC(=O)CNC(=O)CN)[C@@H](C)O)C(N)=O | cell growth or viability, MTT | – | > 200 µM |
| CC[C@@]1(O)C(=O)OCc2c1cc1n(c2=O)Cc2cc3ccccc3nc2-1 | cytotoxicity, MTT | 48 h | 0.54 ± 0.27 µM |
| O=C(Cn1cnc2ccccc2c1=O)Nc1ncccc1O | cell growth or viability, crystal violet | 48 h | > 100 µM |
| C/C=C(C)/C=C/C=C/[C@H](OC)[C@@H](C)[C@@H](OC)[C@@H](C)CCc1oc2c(O)c(OC)cc(OC)c2c(=O)c1C | oxygen consumption | – | 0.058 ± 0.051 µM |
| C[C@@H]1CC[C@H]2[C@@H](C)C(=O)O[C@@H]3O[C@@]4(C)CC[C@@H]1[C@]32OO4 | cell growth or viability, ATP luminescence | 24 h | > 100 µM |
| [N-]=[N+]=[N-] | oxygen consumption | – | 243 µM |
| O=C(Cn1cnc2ccccc2c1=O)Nc1ccc(O)cc1[N+](=O)[O-] | cell growth or viability, crystal violet | 48 h | > 100 µM |
| Antimycin A | oxygen consumption | – | 0.006 ± 0.001 µM |
| C#CC[C@H](NC(=O)[C@H](CO)NC(=O)CNC(=O)[C@H](CCCNC(=N)N)NC(=O)[C@@H](NC(=O)[C@H](CC(C)C)NC(=O)[C@@H]1CCCN1C(=O)[C@H](C)NC(=O)CNC(=O)[C@@H](NC(=O)[C@H](CO)NC(=O)[C@H](CCCNC(=N)N)NC(=O)CNC(=O)[C@H](CO)NC(=O)[C@H](CCCNC(=N)N)NC(=O)[C@H](CC(C)C)NC(=O)[C@H](CCCNC(=N)N)NC(=O)[C@H](CCCN)NC(=O)CNC(=O)[C@@H]1CCCN1C(=O)[C@@H]1CCCN1C(=O)[C@H](C)N)[C@@H](C)O)[C@@H](C)O)C(N)=O | cell growth or viability, MTT | – | > 200 µM |
